Measurements of several laboratories.
A part holds a random share of what one study measured. Substitutions count along the parent as printed.

Block 1
Target: Prothrombin, mature alpha-thrombin (F2, Homo sapiens, UniProt P00734)
Technique: aptamer microarray, sandwich
Molecule type: DNA with 2'F-ANA
Matrix: in vitro
Concentration: 200 nM
Notes: whole 15-mer aptamer, many near background
Added: Cy3 exosite-II aptamer, 400 nM
Reading: higher = stronger binding
Oligonucleotide: GGTTGGTGTGGTTGG
`2'F-ANA at 1 2 3 7 9 12 14` — result for “mean fluorescence intensity”: 82.6 a.u.
For `2'F-ANA at 2 5 8 10 12 13 14 15`, “mean fluorescence intensity” read 47 a.u.
Under “mean fluorescence intensity”, `2'F-ANA at 1 3 4 10 11 13` is recorded as 64.4 a.u.
`2'F-ANA at 2 3 5 8 9 13` — result for “mean fluorescence intensity”: 78.7 a.u.
`2'F-ANA at 1 5 6 7 9 11 12 13 14`: “mean fluorescence intensity” 62 a.u.
Under “mean fluorescence intensity”, `2'F-ANA at 2 3 5 8 10 11 14` is recorded as 125 a.u.
`2'F-ANA at 1 3 4 6 7 8 11 12 15` — result for “mean fluorescence intensity”: 342 a.u.
`2'F-ANA at 1 3 4 5 7 8 9 10 12` — result for “mean fluorescence intensity”: 52.3 a.u.
`2'F-ANA at 2 3 5 6 9 12 13 15`: “mean fluorescence intensity” 128 a.u.
For `2'F-ANA at 7 10 14 15`, “mean fluorescence intensity” read 125 a.u.
For `2'F-ANA at 1 2 6 7 8 9 10 13 14 15`, “mean fluorescence intensity” read 62.9 a.u.
For `2'F-ANA at 1 4 5 6 7 9 11 14 15`, “mean fluorescence intensity” read 50.4 a.u.
`2'F-ANA at 3 4 5 11 13 14` — result for “mean fluorescence intensity”: 49.5 a.u.
`2'F-ANA at 1 2 6 7 8 10 11 14 15`: “mean fluorescence intensity” 85 a.u.
For `2'F-ANA at 3 4 5 9 10 14 15`, “mean fluorescence intensity” read 47.8 a.u.
For `2'F-ANA at 1 2 3 5 6 7 9 11 13 15`, “mean fluorescence intensity” read 62.7 a.u.
`2'F-ANA at 1 2 3 4 6 9 11 12 13 14`: “mean fluorescence intensity” 60.2 a.u.
`2'F-ANA at 3 4 5 6 7 8 9 10 11 13` — result for “mean fluorescence intensity”: 50.3 a.u.
Under “mean fluorescence intensity”, `2'F-ANA at 2 6 7 9 10 12 14 15` is recorded as 75.2 a.u.
Under “mean fluorescence intensity”, `2'F-ANA at 5 6 8 12 13 14` is recorded as 75.1 a.u.
Under “mean fluorescence intensity”, `2'F-ANA at 1 2 4 7 8 14 15` is recorded as 60.8 a.u.
`2'F-ANA at 1 2 4 5 6 9 10 11 12 14 15` — result for “mean fluorescence intensity”: 51.8 a.u.
`2'F-ANA at 2 3 4 5 7 8 10 11 12 13 14 15` — result for “mean fluorescence intensity”: 50.3 a.u.

Block 2
Target: BATF3, bZIP domain (human)
Technique: DHFR protein complementation
Matrix: yeast
Notes: single substitutions, most at no-binding floor
Relative to: wild-type JUN-FOS pair
Reading: higher = stronger binding
Parent: JUN, bZIP domain (human); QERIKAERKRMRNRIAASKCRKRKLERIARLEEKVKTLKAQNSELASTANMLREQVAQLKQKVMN; partner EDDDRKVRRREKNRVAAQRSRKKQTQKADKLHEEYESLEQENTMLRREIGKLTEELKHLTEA
With `A29C` the binding fitness was 0.11 natural log.
`V56W` has a binding fitness of -0.049 natural log.
`I28V` gave a binding fitness of 0.211 natural log.
The binding fitness of `L52K` is reported as -0.165 natural log.
The binding fitness of `T37R` is reported as 0.246 natural log.
`E44M` gave a binding fitness of 0.224 natural log.
The binding fitness of `T48E` is reported as 0.138 natural log.
`L45T` has a binding fitness of -0.625 natural log.
`R30H` gave a binding fitness of 0.298 natural log.
With `N42H` the binding fitness was 0.128 natural log.
The binding fitness of `R30L` is reported as 0.235 natural log.
With `Q41G` the binding fitness was 0.0214 natural log.

Block 3
Target: CCNE2, cyclin fold, Cln2 fusion (human)
Technique: yeast growth competition, sequencing
Matrix: yeast
Notes: strong parent motif
Relative to: not given
Reading: higher = stronger binding
Parent: E2F1 docking peptide (human); PPVKRRLDFETDH; partner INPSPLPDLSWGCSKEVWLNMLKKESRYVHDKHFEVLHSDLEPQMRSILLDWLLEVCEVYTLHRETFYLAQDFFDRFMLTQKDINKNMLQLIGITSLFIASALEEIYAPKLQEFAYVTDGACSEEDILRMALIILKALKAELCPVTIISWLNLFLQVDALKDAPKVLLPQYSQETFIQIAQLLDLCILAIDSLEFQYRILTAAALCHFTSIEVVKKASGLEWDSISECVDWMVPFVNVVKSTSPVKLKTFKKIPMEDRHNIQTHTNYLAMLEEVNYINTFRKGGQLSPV
For `PPVKRRLDFSTDH [E10S]`, “normalised enrichment score” read 6.07.
`PPYKRRLDFETDH [V3Y]` — result for “normalised enrichment score”: 3.7.
Under “normalised enrichment score”, `PPVKRRLDFEEDH [T11E]` is recorded as 4.51.
`PPNKRRLDFETDH [V3N]`: “normalised enrichment score” 0.0644.
For `PPVKRRLMFETDH [D8M]`, “normalised enrichment score” read 6.1.
`PPVKRRLRFETDH [D8R]`: “normalised enrichment score” 5.5.
Under “normalised enrichment score”, `PPVKRRLDWETDH [F9W]` is recorded as 2.77.
`PPVKRRLDFFTDH [E10F]` — result for “normalised enrichment score”: 5.4.
Under “normalised enrichment score”, `PPVKRRLDFTTDH [E10T]` is recorded as 6.33.
Under “normalised enrichment score”, `PPVKRRLDFDTDH [E10D]` is recorded as 5.9.
Under “normalised enrichment score”, `PPVKRRLDFETVH [D12V]` is recorded as 6.55.
`PPVKRILDFETDH [R6I]` — result for “normalised enrichment score”: 4.37.
`PPLKRRLDFETDH [V3L]`: “normalised enrichment score” 1.62.
For `PPVKRRMDFETDH [L7M]`, “normalised enrichment score” read 1.08.
`PHVKRRLDFETDH [P2H]` — result for “normalised enrichment score”: 6.06.
`PPVKRRLDFKTDH [E10K]`: “normalised enrichment score” 5.76.
`PPVKRRLDKETDH [F9K]`: “normalised enrichment score” 0.736.
For `PPVIRRLDFETDH [K4I]`, “normalised enrichment score” read 3.87.
`PPVKRDLDFETDH [R6D]`: “normalised enrichment score” -0.119.

Block 4
Target: Centromere-binding protein 1, full length, His-tagged (CBF1, Saccharomyces cerevisiae, UniProt P17106, residues 1-351)
Chain of UniProt P17106 (whole entry, looked up): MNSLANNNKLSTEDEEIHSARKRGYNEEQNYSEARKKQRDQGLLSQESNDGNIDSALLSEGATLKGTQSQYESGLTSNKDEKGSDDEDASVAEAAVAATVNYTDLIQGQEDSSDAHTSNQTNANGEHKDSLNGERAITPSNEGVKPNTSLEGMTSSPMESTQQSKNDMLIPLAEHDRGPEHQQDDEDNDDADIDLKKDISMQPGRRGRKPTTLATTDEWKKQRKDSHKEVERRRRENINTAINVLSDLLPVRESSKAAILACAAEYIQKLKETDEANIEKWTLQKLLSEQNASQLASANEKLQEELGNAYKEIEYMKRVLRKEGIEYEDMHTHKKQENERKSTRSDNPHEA
Technique: competition protein-binding microarray
Molecule type: double-stranded DNA, one strand shown
Matrix: in vitro
Concentration: 2 µM
Notes: whole 60-bp probe, lowest competitor level
Added: Pho4 competitor, 0.05 µM
Reading: higher = stronger binding
`AAGAACCTGCAAGGGCATGTGCGGTTGTTGGAGCGAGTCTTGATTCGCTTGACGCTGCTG` has a fluorescence intensity of 63.1 a.u.
With `CGTCCTAGTGATTGTCATGTGGGTGCCATGAGGAAGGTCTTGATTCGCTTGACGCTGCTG` the fluorescence intensity was 199 a.u.
`CATACCCAACCTTGCCGCGTGGGTGAAGATATTTGTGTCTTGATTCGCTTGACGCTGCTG` has a fluorescence intensity of 76.5 a.u.
`AAATTACTAAGTTGCTTCGTGGGTGACGCCGTATGAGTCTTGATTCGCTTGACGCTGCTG` gave a fluorescence intensity of 69.8 a.u.
The fluorescence intensity of `GGGCAAAACTATCCGCACGCTGAAACAGGCTGATGAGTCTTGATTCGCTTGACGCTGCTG` is reported as 72.7 a.u.
The fluorescence intensity of `CGTCCTAGTGATTGTGTAGTGGGTGCCATGAGGAAGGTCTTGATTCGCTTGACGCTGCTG` is reported as 96.5 a.u.
`TTCTAGCGCTTCCATCACGTGCTGTGGCGCTATGGTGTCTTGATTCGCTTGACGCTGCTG` gave a fluorescence intensity of 4170 a.u.
With `TGCGCAACAACTTGAGCAGTGGGTGTATGTCTAGAAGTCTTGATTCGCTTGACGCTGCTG` the fluorescence intensity was 73 a.u.
With `CGGGGTTAAGTTTGTCACGGAACTTGCTTGCAGCAGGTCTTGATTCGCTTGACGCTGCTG` the fluorescence intensity was 67.8 a.u.
The fluorescence intensity of `CTAGACAAAGCAATTCTCATGACAAATCTACCGATTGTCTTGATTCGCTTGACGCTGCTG` is reported as 70.3 a.u.
`GGTTAAACAGAAAAAGACGTGACGGTGTAACCGAGAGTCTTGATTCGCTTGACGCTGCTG` gave a fluorescence intensity of 108 a.u.
For `AAAATGAGATAGATACATGCGTGAGACAATTGCCTTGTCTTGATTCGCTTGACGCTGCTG`, the fluorescence intensity was 71.2 a.u.
`CATACCCAACCTTTTCACGTGAACTAAGATATTTGTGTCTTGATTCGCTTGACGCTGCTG` gave a fluorescence intensity of 1050 a.u.
The fluorescence intensity of `CGGGAAATATTTCAGCATGTGATGTGGCTGAAAATTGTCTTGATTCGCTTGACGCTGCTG` is reported as 905 a.u.
The fluorescence intensity of `TGCTGTAGAGTTCACCACGTGAGGTAAATATTGGGAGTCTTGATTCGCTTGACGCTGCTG` is reported as 1600 a.u.
`CTAACATCGTCCGCGCAGGTGACGCCTCCCGCGCTGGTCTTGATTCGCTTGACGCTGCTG` has a fluorescence intensity of 84 a.u.
`CTTTCCCGATCTTGGCCGGTGGGTGTAGCACATTTGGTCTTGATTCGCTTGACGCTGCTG` has a fluorescence intensity of 75.8 a.u.
For `CACTGAGTGAGCCGCCTCGTGCGATGCGTTAGAAAAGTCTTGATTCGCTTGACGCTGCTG`, the fluorescence intensity was 84.1 a.u.
`GTCTTGTCTCATTGGCGGGTGGGTGTCCCCACTTCAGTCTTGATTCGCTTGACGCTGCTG` gave a fluorescence intensity of 83.7 a.u.

Other studies, line by line
For `PhoQ, residues 284 288 289 292 302 303 TLSLKA`, the fold induction was 0.869 (PhoP, residues 12 14 15 18 19 NMSSL (Escherichia coli, UniProt P23836); Sort-seq, refers to: YFP reporter; E. coli; PhoQ-PhoP variant library, added: 10 µM Mg2+; relative to: high Mg2+ state, higher = stronger signaling).

Some of these lines once more (block 1):
`2'F-ANA at 1 5 6 7 9 11 12 13 14`: “mean fluorescence intensity” 62 a.u.
Under “mean fluorescence intensity”, `2'F-ANA at 2 3 5 8 10 11 14` is recorded as 125 a.u.
`2'F-ANA at 1 3 4 6 7 8 11 12 15` — result for “mean fluorescence intensity”: 342 a.u.
`2'F-ANA at 1 3 4 5 7 8 9 10 12` — result for “mean fluorescence intensity”: 52.3 a.u.
